Experimental data from different studies.
Values joined by “and” are separate records of one study, mostly repeats; a detail may differ. Numbers after ± are the reported error.
Sequence of UniProt P11712 (whole entry, looked up): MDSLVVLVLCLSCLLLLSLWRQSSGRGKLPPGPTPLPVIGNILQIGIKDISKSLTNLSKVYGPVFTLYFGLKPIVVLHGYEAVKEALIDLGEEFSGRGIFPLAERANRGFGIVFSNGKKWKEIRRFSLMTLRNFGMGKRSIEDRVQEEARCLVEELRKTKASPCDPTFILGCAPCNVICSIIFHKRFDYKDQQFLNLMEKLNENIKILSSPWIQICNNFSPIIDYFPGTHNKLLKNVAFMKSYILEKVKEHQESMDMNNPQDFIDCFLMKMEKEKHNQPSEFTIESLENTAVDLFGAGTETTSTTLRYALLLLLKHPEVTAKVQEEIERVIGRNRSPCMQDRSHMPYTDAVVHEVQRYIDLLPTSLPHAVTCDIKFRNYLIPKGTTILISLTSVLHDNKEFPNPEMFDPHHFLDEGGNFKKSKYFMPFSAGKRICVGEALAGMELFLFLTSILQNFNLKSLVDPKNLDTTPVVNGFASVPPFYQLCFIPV
Sequence of UniProt Q8TDC3 (whole entry, looked up): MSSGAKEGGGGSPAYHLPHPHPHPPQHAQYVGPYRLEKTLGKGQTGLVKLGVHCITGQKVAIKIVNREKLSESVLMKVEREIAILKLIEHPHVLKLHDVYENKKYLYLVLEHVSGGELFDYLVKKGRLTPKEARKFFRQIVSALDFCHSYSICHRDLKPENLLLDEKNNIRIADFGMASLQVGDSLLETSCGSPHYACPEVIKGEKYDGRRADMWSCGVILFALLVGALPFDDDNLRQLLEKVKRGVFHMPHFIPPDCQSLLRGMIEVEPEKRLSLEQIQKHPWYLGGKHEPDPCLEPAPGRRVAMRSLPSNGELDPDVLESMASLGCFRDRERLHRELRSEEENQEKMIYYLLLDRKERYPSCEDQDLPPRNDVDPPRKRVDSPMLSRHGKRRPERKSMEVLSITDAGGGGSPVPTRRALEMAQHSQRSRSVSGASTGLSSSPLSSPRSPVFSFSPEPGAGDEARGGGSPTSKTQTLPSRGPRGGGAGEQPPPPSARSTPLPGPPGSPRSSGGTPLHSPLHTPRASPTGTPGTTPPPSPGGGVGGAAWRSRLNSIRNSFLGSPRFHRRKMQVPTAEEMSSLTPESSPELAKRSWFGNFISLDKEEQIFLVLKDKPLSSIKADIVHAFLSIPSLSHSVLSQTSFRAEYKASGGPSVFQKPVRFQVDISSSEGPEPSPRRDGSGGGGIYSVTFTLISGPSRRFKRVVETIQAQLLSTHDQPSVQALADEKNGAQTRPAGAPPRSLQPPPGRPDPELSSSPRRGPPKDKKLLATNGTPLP

Structure (SMILES) | target or system | test | system | conditions | how to read | endpoint | value
Fc1ccc(/C=N/Nc2nnc(N/N=C/c3ccc(F)cc3)c3ccccc23)cc1 | – | haemolysis | human | 1 mM, 45 min | – | haemolysis | 5.2%
Cc1nn(-c2cccc(N)c2)c(=O)c2cnc(Nc3ccc(N4CCNCC4)cc3)nc12 | BRSK1 (Homo sapiens, UniProt Q8TDC3) | enzyme activity, inhibitor | – | – | – | IC50 | > 10 µM
CSCC[C@H](N)C(=O)N[C@@H](CO)C(=O)N[C@H](C(=O)N[C@@H](C)C(=O)NCC(=O)N[C@@H](CC(C)C)C(=O)N[C@@H](CCCCN)C(=O)N[C@@H](CCCCN)C(=O)N[C@@H](CCC(N)=O)C(=O)N[C@@H](Cc1c[nH]c2ccccc12)C(=O)N[C@@H](Cc1ccc(O)cc1)C(=O)N[C@@H](CCCCN)C(=O)N[C@@H](C)C(=O)N[C@@H](CO)C(=O)N[C@@H](CCC(N)=O)C(=O)N[C@@H](CC(C)C)C(=O)N[C@H](C(=O)N[C@@H](CO)C(=O)N[C@@H](CCC(=O)O)C(=O)N[C@@H](CCCCN)C(=O)N[C@H](C(=O)NCC(=O)NCC(=O)N[C@@H](C)C(N)=O)C(C)C)C(C)C)C(C)C | – | circular dichroism | ~60% TFE | – | – | fractional helicity | 71.7%
CC(C)[C@H](NC(=O)[C@H](Cc1c[nH]c2ccccc12)NC(=O)[C@H](CCCNC(=N)N)NC(=O)[C@H](CCCNC(=N)N)NC(=O)[C@@H](NC(=O)[C@@H](NC(=O)[C@H](CCCNC(=N)N)NC(=O)[C@@H](NC(=O)[C@@H](NC(=O)[C@H](CCCNC(=N)N)NC(=O)[C@H](CCCNC(=N)N)NC(=O)[C@@H](NC(=O)[C@H](Cc1c[nH]c2ccccc12)NC(=O)[C@H](CCCNC(=N)N)NC(=O)[C@H](CCCNC(=N)N)NC(=O)[C@@H](NC(=O)[C@H](CCCNC(=N)N)NC(=O)[C@H](CCCNC(=N)N)NC(=O)[C@@H](NC(=O)[C@H](Cc1c[nH]c2ccccc12)NC(=O)[C@H](CCCNC(=N)N)NC(=O)[C@@H](N)CCCNC(=N)N)C(C)C)C(C)C)C(C)C)C(C)C)C(C)C)C(C)C)C(C)C)C(=O)N[C@@H](CCCNC(=N)N)C(=O)N[C@@H](CCCNC(=N)N)C(=O)O | – | – | CD1 mouse, plasma | intravenous, 15 mg/kg, 24 h, [14C]-labelled compound | – | glucose | 155 mg/dL
CCCCN1C(=O)c2cccc3c(NCCCN4CCOCC4)ccc(c23)C1=O | – | – | Methanol | – | – | molar extinction coefficient | 5160 M⁻¹ cm⁻¹
CC(C)(O)c1ncc([S@](N)(=O)=NC(=O)Nc2c3c(cc4c2CCC4)CCC3)s1 | – | item: reproductive, breast disorders | healthy human | oral, dose not given, 14 days, all active multiple doses pooled | – | subjects with TEAEs | 5%
CCCC[C@H](OC(C)=O)c1ccccc1C(=O)O | – | – | Sprague-Dawley rats, both sexes, whole blood | intravenous, 20 mg/kg single dose | – | MRT(0-inf) | 2.9 ± 0.64 h
CCC(=O)N(C)c1ccc(Cl)c(Cl)c1 | – | – | female C57BL/6 mice | oral, 10 mg/kg, 2 h | – | plasma concentration | 44.6 ng/mL
CCCCN1C(=O)c2cccc3c(NCCCCCCCCN4CCOCC4)ccc(c23)C1=O | – | – | DMSO | – | – | molar extinction coefficient | 11600 M⁻¹ cm⁻¹
CN1CCC[C@]1(C)/C=C/S(=O)(=O)NC(=O)Nc1c2c(cc3c1CCC3)CCC2 | – | item: Constipation, possibly related | human | oral, 100 mg twice daily, 14 days, multiple ascending dose | – | subjects with adverse event | 0%
COCC1CN(C2CCN(c3cc(OC)c(Nc4ncc(Br)c(Nc5ccc6c(c5P(C)(C)=O)OCCO6)n4)cc3C)CC2)C1 | – | – | EGFR-mutant NSCLC patients, plasma | oral, 90 mg single dose, median | – | Tmax | 2 h
Cc1n[nH]c(C)c1CCCOc1cc(C(=O)NCCCCC(NC(=O)CN2CCN(CC(=O)[O-])CCN(CC(=O)[O-])CCN(CC(=O)[O-])CC2)C(=O)NCC2CCC(C(=O)NC(Cc3ccc4ccccc4c3)C(=O)NCCCCC(NC(=O)NC(CCC(=O)O)C(=O)O)C(=O)O)CC2)ccc1F.[68Ga+3] (stereo not shown) | – | micro-PET/CT | mouse 22Rv1 xenograft, tumour | 1 h post-injection | – | mean tumour uptake | 9.57 ± 0.94 %ID/g
O=C(Nc1cnccc1-c1ccc([18F])nc1)c1ccnc(NC(=O)C2CC2)c1 | – | – | FVB/NJ mice (both sexes), cerebellum | intravenous, dose not given, 120 min | – | SUV | 0.023
C=CC(=O)Nc1cccc(Cn2ncc3cnc(Nc4cnn(CCOC)c4)nc32)c1 | TNK2 human | binding, KINOMEscan | – | 100 nM | lower = stronger binding | percent of control | 73%
COC1CN([C@H]2CC[C@H]([C@@]3(C)Oc4c(Cl)cc(C(=O)NCc5c(SC)cc(C)[nH]c5=O)c(C)c4O3)CC2)C1 | – | RNA-seq, item: UPP1 mouse homolog | mouse, HT-1376 xenograft, whole blood | dose not given | baseline: vehicle | log2 fold change | 0.766
CCCCN1C(=O)c2cccc3c(NCCCCN4CCOCC4)ccc(c23)C1=O | – | – | dioxane | – | – | fluorescence lifetime | 10 ns
C=C(NC(=O)c1csc(-c2nc3c(cc2O)-c2nc(cs2)C(=O)NC(C(C)O)C(=O)NC(=C(C)OC)c2nc(cs2)C(=O)NC2c4nc(cs4)C(=O)NC(COC(=O)c4c5c6c(cccc6n4O)COC(=O)C(OC4CC(C)(O)C(N(C)C)C(C)O4)C2OC5)c2nc-3cs2)n1)C(N)=O (stereo not shown) | – | – | ICR mice, Streptococcus pneumoniae ATCC 49169 infected, immunocompromised, blood | intravenous, 32 mg/kg/day twice daily | – | MRT(0-t) | 4.7 h

Structure (SMILES) | target or system | test | system | conditions | how to read | endpoint | value
O=C(Nc1cnccc1-c1ccc([18F])cc1)c1ccnc(NC(=O)C2CC2)c1 | – | ex vivo gamma counting | GSK-3β transgenic mice, early-stage, brain stem | intravenous, 120 min | – | mean SUV | 0.05
CC[C@H](C)[C@@H](C(=O)N[C@@H](CC(C)C)C(=O)N[C@@H](CO)C(=O)N[C@@H](CO)C(=O)N[C@H](C(=O)N[C@@H](CCC(=O)O)C(=O)N[C@H](C(=O)NCC(=O)N[C@@H](CO)C(=O)N[C@@H](CC(N)=O)C(=O)N[C@H](C(=O)N1C[C@H](O)C[C@H]1C(N)=O)[C@@H](C)O)C(C)C)[C@@H](C)O)N(C)C(=O)[C@H](C)NC(=O)CN(C)C(=O)[C@H](Cc1ccccc1)NC(=O)[C@H](CO)NC(=O)[C@H](CO)NC(=O)[C@H](CCCNC(=N)N)NC(=O)[C@H](CCC(N)=O)NC(=O)[C@H](CC(C)C)NC(=O)[C@H](Cc1ccccc1)NC(=O)[C@H](CCCC(=O)O)NC(=O)[C@H](C)NC(=O)[C@H](CC(C)C)NC(=O)[C@H](CCCNC(=N)N)NC(=O)[C@H](CCC(=O)O)NC(=O)[C@@H](NC(=O)[C@H](C)NC(=O)[C@@H]1CCCCNC(=O)C[C@H](NC(=O)[C@H](CCCNC(=N)N)NC(=O)CC[C@H](NC(=O)CCCCCCCCCCCCCCCCCCC(=O)O)C(=O)O)C(=O)NCC(=O)N[C@@H]([C@@H](C)O)C(=O)N[C@@H](C)C(=O)N[C@@H]([C@@H](C)O)C(=O)N1)[C@@H](C)O | – | RP-UPLC | formulation, histidine buffer, mannitol, NaCl | 1 weeks, pH 6.1, 40 °C | – | chemical degradation | ≤ 3%
CNC(=O)C1CCCN(C(=O)C2CC3CCC2N3C(=O)[C@@H]2C[C@@H](O)CN2C(=O)NCc2cccc(Cl)c2F)C1 (mixture of isomers) | Cytochrome P450 2C9 (CYP2C9, Homo sapiens, UniProt P11712) | preincubation without NADPH | human | 0.206 µM | baseline: negative control | remaining activity | 98.2% and 95.1% and 102%
CC[C@H](C)[C@@H]1NC(=O)[C@H](Cc2ccc(O)cc2)NC(=O)CCCSC[C@@H](C(=O)N(CC(=O)N[C@@H](CC(C)C)C(=O)NCC(N)=O)Cc2ccc(F)cc2)NC(=O)[C@H](CC(N)=O)NC(=O)[C@H](CCC(N)=O)NC1=O | – | – | healthy human, plasma | intranasal, 200 µg every 3 h, after second dose | – | AUC(0-t) | 0.078 ng·h/mL
CCc1cnc(NC(=O)c2cc(S(=O)(=O)N3CCOCC3)ccc2N(C)C2CCCC2)s1 | – | – | mouse | 10 mg/kg, 3 doses | – | mean corpuscular haemoglobin | 16.3 pg
CCN(CC)CC#CCNc1ccnc2cc(Cl)ccc12 | Salmonella typhimurium | mini-Ames test | TA97a | 1000.0 µg/well, without S9 | – | revertants | 0 revertants/well
O=C(NS(=O)(=O)c1cccs1)c1cc2ccccc2n1Cc1ccc(Br)c2ccccc12 | – | – | Sprague-Dawley rat, male, plasma | oral, 2 mg/kg, 6 h | – | plasma concentration | 69.1 ng/mL
Cc1cc(-c2ccc(C(=O)[C@@H]3CCCC[C@H]3C(=O)Nc3cnn4c3C(=O)NCC4)cc2)[nH]n1 | – | – | human, faeces | oral, 200 mg, 0-264 h | baseline: dose | cumulative recovery of radioactivity | 79.2%
Cc1nc(N)nc2c1C(=O)N[C@@H](c1ccc(F)cc1-c1cccc(O[11CH3])n1)C2 | – | ex vivo biodistribution | mice, U87 subcutaneous xenograft, blood | 60 min post-injection, baseline, vehicle pre-treatment | – | tracer uptake | 3.9 ± 0.6 %ID
CCC1=[N+]2N=C(c3ccccc3)C(=O)O[B-]2(c2ccccc2)Oc2cc(OC)ccc21 (stereo not shown) | – | – | toluene | – | – | molar absorption coefficient | 7000 M⁻¹ cm⁻¹
CCCCN1C(=O)c2cccc3c(NCCCCCN4CCOCC4)ccc(c23)C1=O | – | – | ethylene glycol | – | – | molar extinction coefficient | 6000 M⁻¹ cm⁻¹
CC[C@H](C)[C@H](NC(=O)[C@H](Cc1ccc(O)cc1)NC(=O)[C@@H](NC(=O)[C@H](CCCNC(=N)N)NC(=O)[C@@H](N)CC(=O)O)C(C)C)C(=O)N[C@@H](Cc1c[nH]cn1)C(=O)N1CCC[C@H]1C(=O)O | – | LC-MS/MS | Sprague-Dawley rats, both sexes, plasma | subcutaneous, 10 mg/kg/day, day 27 | – | Cmax | 257 ng/mL
[123I]c1ccc2nc(-c3ccc(-n4ccnn4)nc3)cn2c1 | – | – | male Wistar rat, spleen | intravenous, 4 MBq, 5 min | – | tracer uptake | 1.1 %ID/g
C=CC(=O)Nc1cc(Nc2nccc(-c3cn(C)c4ccccc34)n2)c(OC)cc1N(C)CCNC | – | storage stability | human dried blood spot | 10 d, on ice, LQC level | – | recovery | 59.5%
CC(=O)N([O-])CCCCCNC(=O)CCC(=O)N([O-])CCCCCNC(=O)CCC(=O)N([O-])CCCCCN.[89Zr+4] | – | – | mouse plasma | 5 d, 37 °C | – | intact complex | 85 ± 7.1%
COc1cccc(OC)c1-c1cc(C(=O)NC2(C(=O)O)C3CC4CC(C3)CC2C4)nn1-c1ccc(C(=O)N(C)CCCN(C)CCCN(C)C(=O)[C@H](CCCCNC(=O)[C@H](CC(C)C)NC(=O)C2OC2C(=O)O)NC(=O)CN2CCN(CC(=O)[O-])CCN(CC(=O)[O-])CCN(CC(=O)[O-])CC2)cc1C(C)C.[177Lu+3] (mixture of isomers) | – | – | mouse, HT-29 xenograft | 4 h post injection, biodistribution | baseline: tumour over brain uptake | tumour-to-brain ratio | 45.2
CC(C)C[C@H](NC(=O)[C@H](CCCN)NC(=O)CNC(=O)[C@@H](NC(=O)[C@H](C)NC(=O)[C@@H]1CSCSC[C@H](NC(=O)CC[C@H](N)C(=O)O)C(=O)N[C@@H](CC(N)=O)C(=O)N[C@@H]([C@@H](C)O)C(=O)N[C@@H](C)C(=O)N[C@@H]([C@@H](C)O)C(=O)N1)[C@@H](C)O)C(=O)N[C@@H](C)C(=O)N[C@@H](CCC(=O)O)C(=O)N[C@@](C)(Cc1ccccc1)C(=O)N[C@@H](CC(C)C)C(=O)N[C@H](C(=O)N[C@@H](CCCNC(=N)N)C(=O)N[C@@H](CO)C(=O)N[C@@H](CO)C(=O)N[C@@H](CC(N)=O)C(=O)N(C)[C@@H](CC(N)=O)C(=O)N[C@@H](Cc1ccccc1)C(=O)NCC(=O)N1CCC[C@H]1C(=O)N[C@@H](CCCCNC(=O)CC[C@H](NC(=O)CC[C@H](NC(=O)CCCCCCCCCCCCCCCCCCC(=O)O)C(=O)O)C(=O)O)C(=O)N[C@@H](CC(C)C)C(=O)N1CCC[C@H]1C(=O)N1CCC[C@H]1C(=O)N[C@H](C(=O)N[C@@H](CCC(=O)O)C(=O)N[C@H](C(=O)NCC(=O)N[C@@H](CO)C(=O)N[C@@H](CC(N)=O)C(=O)N[C@H](C(=O)N[C@@H](Cc1ccc(O)cc1)C(N)=O)[C@@H](C)O)C(C)C)[C@@H](C)O)C(C)C | – | – | healthy human, plasma | subcutaneous, 0.04 mg single dose, geometric LS mean | – | AUC(0-tlast) | 1830 ng·h/mL

Repeated from above:
Structure (SMILES) | target or system | test | system | conditions | how to read | endpoint | value
CC[C@H](C)[C@@H]1NC(=O)[C@H](Cc2ccc(O)cc2)NC(=O)CCCSC[C@@H](C(=O)N(CC(=O)N[C@@H](CC(C)C)C(=O)NCC(N)=O)Cc2ccc(F)cc2)NC(=O)[C@H](CC(N)=O)NC(=O)[C@H](CCC(N)=O)NC1=O | – | – | healthy human, plasma | intranasal, 200 µg every 3 h, after second dose | – | AUC(0-t) | 0.078 ng·h/mL
CCc1cnc(NC(=O)c2cc(S(=O)(=O)N3CCOCC3)ccc2N(C)C2CCCC2)s1 | – | – | mouse | 10 mg/kg, 3 doses | – | mean corpuscular haemoglobin | 16.3 pg
